Measurements gathered from unrelated publications.
Each line is one published result; not all experiments were run side by side. Values joined by “and” are separate records of one study, mostly repeats; a detail may differ.
ABL1: Tyrosine-protein kinase ABL1 (ABL1, Homo sapiens, UniProt P00519)
ABL1 H396P: Tyrosine-protein kinase ABL1 (ABL1, Homo sapiens, UniProt P00519, H396P)
ABL1 T315I: Tyrosine-protein kinase ABL1 (ABL1, Homo sapiens, UniProt P00519, T315I)

COc1ccc(O)cc1-c1c[nH]c2ncc(-c3cncc(C(=O)N(C)C)c3)cc12 has an inhibition of 99.5% (ABL1; binding, competition with immobilised ligand; 0.2 µM).
O=C(Cc1ccc(OCc2ccccc2)cc1)NC1(C(=O)O)CCN(C(=O)c2ccc(-c3cccc(Cl)c3)cc2)CC1 — result for “activity vs control”: 105% (ABL1; enzyme activity, inhibitor; 10 µM).
For CN1CCN(c2ccc(Nc3ncc(Cl)c(Nc4ccccc4P(C)(C)=O)n3)cc2Br)CC1, the inhibition was 1.4% (ABL1; enzyme activity, inhibitor; 0.1 µM).
For COc1ccc(NC(=O)Nc2ccc3c(c2)C(=O)N(C(C)CO)CC(C)C(CN(C)Cc2ccc4c(c2)OCO4)O3)cc1 (stereo not drawn), the remaining activity was 104% (ABL1 H396P; kinase activity; 0.03 µM; relative to: control).
For Cc1cccc(O[C@H]2CCC[C@@H](C(C)CNCc3ccncc3)C2)c1 (relative stereo), the inhibition was -21% (ABL1; enzyme activity, inhibitor; 10 µM).
The inhibition of O=C(Nc1ccc(Oc2ncnc3[nH]cc(-c4ccccc4)c23)c(F)c1)c1c2n(n(-c3cc(F)ccc3F)c1=O)CCCC2 is reported as 32% (ABL1; enzyme activity, inhibitor; 0.5 µM).
CCN1CCN(Cc2ccc(NC(=O)c3ccc(C)c(NC(=O)c4cncc(-c5cccs5)c4)c3)cc2C(F)(F)F)CC1 gave a remaining binding of 0.5% (ABL1 H396P; binding, competition with immobilised ligand; 1 µM).
N[C@H]1CC[C@H](Nc2nccc(-c3cccnc3Oc3ccc(NC(=O)NC4CC4)c4ccccc34)n2)CC1 — result for “log2 LFQ intensity”: 23.1 and 23.3 (ABL1; kinobead competition pulldown; HEK293/HCT116 lysate mixture; 10 µM, 1 h, 4 °C; lower = stronger competition).
For O=C=[N][Ru-4]123([n]4c5ccc(O)cc5c5c6c(c7cc(F)c[n+]1c7c54)C(=O)NC6=O)[S+]1CC[S+]2CC[S+]3CC1 (stereo not drawn), the remaining activity was 101% (ABL1; enzyme activity; 100 nM, human enzyme, together with: 10 µM ATP; relative to: untreated).
The remaining binding of COc1c(Cl)cccc1Nc1c(-c2ccncc2C#C[C@@]2(C)CCCN2C(=O)/C=C/CN(C)C)[nH]c2c1C(=O)NCC2 is reported as 24% (Tyrosine-protein kinase ABL1, non-phosphorylated (ABL1, Homo sapiens, UniProt P00519); binding, competition with immobilised ligand; 3 µM).
For COCC12C(=O)NC3C4(C(OC)CC1O)C1CC5(O)C(OC)C(O)C(OC(C)=O)(C1C5OC(=O)c1ccccc1)C3(O)C(OC)C24 (stereo not drawn), the remaining activity was 115% and 121% (ABL1 T315I; kinase activity, inhibitor, ProQinase kinase profiling; 25 µM; relative to: control).
CCn1cc(C(=O)O)c(=O)c2c(N)c(F)c(NC3CCCCC3)cc21 gave an inhibition of -9.7% (ABL1; kinase activity; 0.1 µM, together with: ATP at Km).
COc1cc(OC)c(F)c(/C=C/c2cnc3ccn(S(=O)(=O)c4cn(CCF)cn4)c3n2)c1F has an inhibition of 0% (ABL1; 100 nM).
NC(=O)[C@@H](O)C[C@H]1CCc2sc3ncnc(O[C@H]4CC[C@H](N5CCOCC5)CC4)c3c21 has an inhibition of 20% (ABL1; enzyme activity, inhibitor; 10 µM).
The remaining activity of O=c1c(-c2ccc(Cl)c(CN3CCOCC3)c2)coc2cc(O)ccc12 is reported as 95% (ABL1 T315I; enzyme activity, inhibitor; 1 µM).
CN1CCN(Cc2ccc(NC(=O)c3cccc(C#Cc4cnc(N)c5ncccc45)c3)cc2C(F)(F)F)CC1 has a remaining binding of 0.3% (Tyrosine-protein kinase ABL1, phosphorylated (ABL1, Homo sapiens, UniProt P00519); cell-free assay, competition with immobilised ligand; 0.5 µM).
C=CC(=O)Nc1cccc(-c2cnc3[nH]cc(C(=O)NC(C)(C)C)c3n2)c1 gave an inhibition of 15% and 19% (ABL1; kinase activity; 0.1 µM).
C[C@H]1CN(C(=O)c2cn(-c3ccnc(N)n3)c3cc(C#CC4(O)CCCCC4)ccc23)CCN1 gave an inhibition of -1% (ABL1; enzyme activity, inhibitor, FRET; 1 µM).

For quick reference, copied from above:
COc1ccc(O)cc1-c1c[nH]c2ncc(-c3cncc(C(=O)N(C)C)c3)cc12 has an inhibition of 99.5% (ABL1; binding, competition with immobilised ligand; 0.2 µM).
